{"data": "Published values gathered from unrelated publications", "note": "A part holds a random share of what one study measured. Positions count from the first letter of the parent shown."}
{"data": "Series 1", "target": "Histone acetyltransferase KAT6A, winged helix 1, GST fusion (KAT6A, Homo sapiens, UniProt Q92794, residues 1-85)", "method": "protein binding microarray", "form": "double-stranded DNA, one strand shown", "sample": "in vitro", "tested at": "not given", "notes": "8-mer, flanks averaged, mean of 2 arrays, mostly near background", "reference": "not given", "direction": "higher = stronger binding", "Construct (chain)": "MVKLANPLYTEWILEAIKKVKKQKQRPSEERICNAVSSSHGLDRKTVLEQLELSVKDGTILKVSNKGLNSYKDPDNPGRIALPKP"}
{"Sequence": "CAGTGGCA", "E-score": -0.175}
{"Sequence": "AGCCACAT", "E-score": -0.271}
{"Sequence": "TGATGAAA", "E-score": -0.241}
{"Sequence": "GAAGGGTC", "E-score": 0.0132}
{"Sequence": "CCAGGTGC", "E-score": -0.129}
{"Sequence": "ACCCTTAC", "E-score": 0.0876}
{"Sequence": "ATGCGAAA", "E-score": -0.0496}
{"data": "Series 2", "target": "CCNE2, cyclin fold, Cln2 fusion (human)", "method": "yeast growth competition, sequencing", "sample": "yeast", "notes": "strong parent motif", "reference": "not given", "direction": "higher = stronger binding", "starting sequence": "SCAPER docking peptide (human); SNARRSLNFGGST; partner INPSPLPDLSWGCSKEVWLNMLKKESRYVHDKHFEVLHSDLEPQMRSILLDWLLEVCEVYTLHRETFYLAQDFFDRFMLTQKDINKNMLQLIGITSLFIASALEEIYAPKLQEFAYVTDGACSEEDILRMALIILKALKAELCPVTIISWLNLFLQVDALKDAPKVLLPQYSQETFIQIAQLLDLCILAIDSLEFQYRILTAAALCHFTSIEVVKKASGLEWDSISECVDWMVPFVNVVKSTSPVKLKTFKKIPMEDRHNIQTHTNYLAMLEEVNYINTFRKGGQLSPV"}
{"Substitution": "N8P", "normalised enrichment score": 0.62}
{"Substitution": "S1F", "normalised enrichment score": 2.39}
{"Substitution": "R4G", "normalised enrichment score": 0.117}
{"data": "Series 3", "target": "Sal-like protein 4, full length isoform B (SALL4, Homo sapiens, UniProt Q9UJQ4-2, residues 1-616)", "method": "universal PBM", "form": "double-stranded DNA, one strand shown", "sample": "in vitro", "tested at": "not given", "notes": "8-mer, flanks averaged, mean of replicates", "direction": "higher = stronger binding"}
{"Sequence": "AGCCAGTC", "E-score": -0.152}
{"Sequence": "CGACAAGA", "E-score": -0.00885}
{"Sequence": "ATGACTCA", "E-score": 0.0831}
{"Sequence": "CATTCCAC", "E-score": 0.0969}
{"Sequence": "AGTCCAGA", "E-score": 0.00865}
{"Sequence": "TAAGTGCA", "E-score": 0.0971}
{"data": "Single results of other studies"}
{"Substance": "PhoQ, residues 284 288 289 292 302 303 TASMAF", "target": "PhoP, residues 12 14 15 18 19 NHFRA (Escherichia coli, UniProt P23836)", "test": "Sort-seq, measured: YFP reporter", "system": "E. coli", "conditions": "PhoQ-PhoP variant library, added: 10 µM Mg2+", "how to read": "reference: high Mg2+ state, higher = stronger signaling", "quantity": "fold induction", "value": 2.17}
{"note": "Excerpt of the above (series 3):"}
{"Sequence": "CGACAAGA", "E-score": -0.00885}
{"Sequence": "AGCCAGTC", "E-score": -0.152}
{"Sequence": "TAAGTGCA", "E-score": 0.0971}
